Measured values collected from several papers.
Protocols differ between the studies behind these lines. ± gives the spread as reported.
UCHL1: Ubiquitin carboxyl-terminal hydrolase isozyme L1 (UCHL1, Homo sapiens, UniProt P09936)
UniProt P09936, sequence (whole entry, looked up): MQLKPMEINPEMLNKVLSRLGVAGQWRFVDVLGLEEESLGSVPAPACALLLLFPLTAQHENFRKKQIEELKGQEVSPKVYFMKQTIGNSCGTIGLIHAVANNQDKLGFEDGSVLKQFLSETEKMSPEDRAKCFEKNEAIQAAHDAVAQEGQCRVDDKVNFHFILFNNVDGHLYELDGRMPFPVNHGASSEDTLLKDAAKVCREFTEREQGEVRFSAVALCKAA

SMILES	tested on	assay	test system	setting	scale	quantity	result
C=C1CN(S(=O)(=O)c2ccc(C)cc2)CCCN(CCc2ccccc2)CCCN(S(=O)(=O)c2ccc(C)cc2)C1.Cl	MCF7			1 µM, 48 h, together with: progranulin 1 µg/mL		mammosphere formation	inhibited
CC(=O)c1nn(-c2ccccc2Cl)/c(=N/N=C(\C)c2ccc(NC(=O)c3ccccc3)cc2)s1	MCF7	MTT		0.078 µM		cytotoxicity	52.5%
Cc1n[nH]c2nc(-c3ccc(Cl)cc3)c3c(NC(=O)c4ccccc4)nnc-3n12	MCF7	SRB		10 µM, NCI60 single-dose screen	baseline: untreated	cell growth	89%
CC(=NN=c1[nH]c(C)c(N=Nc2ccc(C)cc2)s1)c1c(O)c2ccccc2oc1=O	MCF7	cell growth, MTT			baseline: IC50 BJ-1 over MCF7	selectivity index	> 3.8
N#CC(=Cc1cccnc1)C(=O)NCc1ccccc1	UCHL1	covalent, intact protein LC-MS		12.5 µM		labelling	10.1%
C=CC(=O)c1cccnc1Nc1cccc(C(F)(F)F)c1	MCF7	firefly luciferase reporter		100 µM, 6 h	baseline: vehicle	TEAD reporter activity	5.4 ± 0.6%
CC(=O)Nc1ccc(/C(C)=N/N=c2\sc(C(C)=O)nn2-c2ccc(C)cc2)cc1	MCF7	MTT		2.5 µM		cytotoxicity	65.4%
CC(=O)c1nn(-c2ccc(Cl)cc2)/c(=N/N=C(\C)c2ccc(NC(=O)c3ccccc3)cc2)s1	MCF7			2.5 µM		viability	4.48%
CC(=O)c1nn(-c2ccc(C)cc2)/c(=N/N=C(\C)c2ccc(NC(=O)c3ccccc3)cc2)s1	MCF7	MTT		5 µM		cytotoxicity	93.5%
COC(=O)COc1c(Cc2cc(C(C)(C)CC(C)(C)C)cc(-n3nc4ccccc4n3)c2OCC(=O)OC)cc(C(C)(C)CC(C)(C)C)cc1-n1nc2ccccc2n1	MCF7	MTT		100 µM, 48 h		growth inhibition	95.1 ± 2.88%
C=CC(=O)c1cccnc1Nc1cc(NC(=O)CCCCCC)ccc1OC	MCF7	firefly luciferase reporter		50 µM, 6 h	baseline: vehicle	TEAD reporter activity	37.5 ± 3.8%
CC(Cl)C(=O)N(Cc1nc(C2CCCCCC2)no1)C1CC1 (stereo not shown)	UCHL1	covalent, intact protein LC-MS		12.5 µM		labelling	47.1%
C[C@H](Nc1ccc2c(c1)OCCn1cc(N3C(=O)OC[C@H]3C(F)F)nc1-2)C(N)=O	MCF7	cell growth, CellTiter-Glo		120 h		Hill coefficient GR curve	1
O=[N+]([O-])c1cc(Br)c(O)c(C=NNc2ccccc2)c1	MCF7	ELISA	culture supernatant	IC50, together with: LPS		TNF-α level	42%
CCOc1ccc(-c2nc3cc(-c4nc5cc(N6CCN(C)CC6)ccc5[nH]4)ccc3[nH]2)cc1OCC	MCF7	SRB		10 µM, 48 h		growth percent	7.04%
C=CC(=O)c1cccnc1Nc1cc(F)ccc1OC	MCF7	firefly luciferase reporter		100 µM, 6 h	baseline: vehicle	TEAD reporter activity	4.1 ± 0.4%
COc1cnc2cccc(N3CCc4c(cc(Cn5ccnc5C)cc4-c4cn(C)nc4C(F)(F)F)C3=O)c2c1	MCF7	cell growth, inhibitor		120 h		EC50	10.5 µM
CCOC(=O)c1sc(=NN=C(C)c2c(O)c3ccccc3oc2=O)n(C)c1C	MCF7	cell growth, MTT			baseline: IC50 BJ-1 over MCF7	selectivity index	> 8.93
C[C@H](Nc1ccc2c(c1)OCCn1cc(N3C(=O)OC[C@H]3C(F)F)nc1-2)C(N)=O	MCF7	resazurin growth rate inhibition		72 h		GR50	142 nM
CC(=O)c1nn(-c2ccc(Cl)cc2)/c(=N/N=C(\C)c2ccc(NC(=O)c3ccc(Cl)cc3)cc2)s1	MCF7			5 µM		viability	49.3%
O=C(O)c1cccnc1Nc1cccc(C(F)(F)F)c1	MCF7	firefly luciferase reporter		50 µM, 6 h	baseline: vehicle	TEAD reporter activity	144 ± 3.2%
CC/C(=C(\c1ccc(O)cc1)c1ccc(OCCN(C)C)cc1)c1ccccc1	MCF7			5 µM, 5 days	baseline: vehicle	cell growth	48%
CCOC(=O)c1nn(-c2cccc(Cl)c2)/c(=N/N=C(\C)c2ccc(NC(=O)c3ccc(Cl)cc3)cc2)s1	MCF7	MTT		0.156 µM		cytotoxicity	78.1%
O=C(Cc1ccccc1)Nc1nnc(CCSCCc2nnc(NC(=O)Cc3ccccc3)s2)s1	MCF7	cell proliferation, inhibitor, cell counting		144 h		EC50	~20 µM
C=CC(=O)c1cccnc1Nc1cc(NC(=O)c2ccccc2)ccc1OC	MCF7	firefly luciferase reporter		50 µM, 6 h	baseline: vehicle	TEAD reporter activity	44.2 ± 1.8%

Excerpt of the above:
SMILES	tested on	assay	test system	setting	scale	quantity	result
C=CC(=O)c1cccnc1Nc1cc(F)ccc1OC	MCF7	firefly luciferase reporter		100 µM, 6 h	baseline: vehicle	TEAD reporter activity	4.1 ± 0.4%
C=CC(=O)c1cccnc1Nc1cc(NC(=O)c2ccccc2)ccc1OC	MCF7	firefly luciferase reporter		50 µM, 6 h	baseline: vehicle	TEAD reporter activity	44.2 ± 1.8%
